Published values from different studies.
Compare with care: the assays were run in different laboratories.
ache: Acetylcholinesterase (ache, Electrophorus electricus, UniProt O42275)
Sequence of UniProt O42275 (whole entry, looked up): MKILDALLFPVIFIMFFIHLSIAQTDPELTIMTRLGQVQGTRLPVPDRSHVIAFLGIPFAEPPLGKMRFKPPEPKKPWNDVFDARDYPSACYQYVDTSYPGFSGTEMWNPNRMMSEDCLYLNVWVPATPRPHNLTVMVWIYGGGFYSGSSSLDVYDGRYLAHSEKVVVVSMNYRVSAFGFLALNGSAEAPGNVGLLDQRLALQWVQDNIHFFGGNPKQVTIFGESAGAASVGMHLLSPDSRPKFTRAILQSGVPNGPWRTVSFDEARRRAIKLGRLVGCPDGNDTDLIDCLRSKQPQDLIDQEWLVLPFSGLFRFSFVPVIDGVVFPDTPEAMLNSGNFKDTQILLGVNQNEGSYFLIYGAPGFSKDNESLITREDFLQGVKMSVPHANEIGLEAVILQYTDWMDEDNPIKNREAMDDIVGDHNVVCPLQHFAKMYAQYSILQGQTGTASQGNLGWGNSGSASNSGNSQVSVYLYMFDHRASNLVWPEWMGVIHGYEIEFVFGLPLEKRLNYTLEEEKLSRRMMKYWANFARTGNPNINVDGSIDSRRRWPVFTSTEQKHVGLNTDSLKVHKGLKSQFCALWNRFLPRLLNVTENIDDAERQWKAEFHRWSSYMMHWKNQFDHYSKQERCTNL
CIT: Citron Rho-interacting kinase (CIT, Homo sapiens, UniProt O14578)
Sequence of UniProt O14578 (whole entry, looked up): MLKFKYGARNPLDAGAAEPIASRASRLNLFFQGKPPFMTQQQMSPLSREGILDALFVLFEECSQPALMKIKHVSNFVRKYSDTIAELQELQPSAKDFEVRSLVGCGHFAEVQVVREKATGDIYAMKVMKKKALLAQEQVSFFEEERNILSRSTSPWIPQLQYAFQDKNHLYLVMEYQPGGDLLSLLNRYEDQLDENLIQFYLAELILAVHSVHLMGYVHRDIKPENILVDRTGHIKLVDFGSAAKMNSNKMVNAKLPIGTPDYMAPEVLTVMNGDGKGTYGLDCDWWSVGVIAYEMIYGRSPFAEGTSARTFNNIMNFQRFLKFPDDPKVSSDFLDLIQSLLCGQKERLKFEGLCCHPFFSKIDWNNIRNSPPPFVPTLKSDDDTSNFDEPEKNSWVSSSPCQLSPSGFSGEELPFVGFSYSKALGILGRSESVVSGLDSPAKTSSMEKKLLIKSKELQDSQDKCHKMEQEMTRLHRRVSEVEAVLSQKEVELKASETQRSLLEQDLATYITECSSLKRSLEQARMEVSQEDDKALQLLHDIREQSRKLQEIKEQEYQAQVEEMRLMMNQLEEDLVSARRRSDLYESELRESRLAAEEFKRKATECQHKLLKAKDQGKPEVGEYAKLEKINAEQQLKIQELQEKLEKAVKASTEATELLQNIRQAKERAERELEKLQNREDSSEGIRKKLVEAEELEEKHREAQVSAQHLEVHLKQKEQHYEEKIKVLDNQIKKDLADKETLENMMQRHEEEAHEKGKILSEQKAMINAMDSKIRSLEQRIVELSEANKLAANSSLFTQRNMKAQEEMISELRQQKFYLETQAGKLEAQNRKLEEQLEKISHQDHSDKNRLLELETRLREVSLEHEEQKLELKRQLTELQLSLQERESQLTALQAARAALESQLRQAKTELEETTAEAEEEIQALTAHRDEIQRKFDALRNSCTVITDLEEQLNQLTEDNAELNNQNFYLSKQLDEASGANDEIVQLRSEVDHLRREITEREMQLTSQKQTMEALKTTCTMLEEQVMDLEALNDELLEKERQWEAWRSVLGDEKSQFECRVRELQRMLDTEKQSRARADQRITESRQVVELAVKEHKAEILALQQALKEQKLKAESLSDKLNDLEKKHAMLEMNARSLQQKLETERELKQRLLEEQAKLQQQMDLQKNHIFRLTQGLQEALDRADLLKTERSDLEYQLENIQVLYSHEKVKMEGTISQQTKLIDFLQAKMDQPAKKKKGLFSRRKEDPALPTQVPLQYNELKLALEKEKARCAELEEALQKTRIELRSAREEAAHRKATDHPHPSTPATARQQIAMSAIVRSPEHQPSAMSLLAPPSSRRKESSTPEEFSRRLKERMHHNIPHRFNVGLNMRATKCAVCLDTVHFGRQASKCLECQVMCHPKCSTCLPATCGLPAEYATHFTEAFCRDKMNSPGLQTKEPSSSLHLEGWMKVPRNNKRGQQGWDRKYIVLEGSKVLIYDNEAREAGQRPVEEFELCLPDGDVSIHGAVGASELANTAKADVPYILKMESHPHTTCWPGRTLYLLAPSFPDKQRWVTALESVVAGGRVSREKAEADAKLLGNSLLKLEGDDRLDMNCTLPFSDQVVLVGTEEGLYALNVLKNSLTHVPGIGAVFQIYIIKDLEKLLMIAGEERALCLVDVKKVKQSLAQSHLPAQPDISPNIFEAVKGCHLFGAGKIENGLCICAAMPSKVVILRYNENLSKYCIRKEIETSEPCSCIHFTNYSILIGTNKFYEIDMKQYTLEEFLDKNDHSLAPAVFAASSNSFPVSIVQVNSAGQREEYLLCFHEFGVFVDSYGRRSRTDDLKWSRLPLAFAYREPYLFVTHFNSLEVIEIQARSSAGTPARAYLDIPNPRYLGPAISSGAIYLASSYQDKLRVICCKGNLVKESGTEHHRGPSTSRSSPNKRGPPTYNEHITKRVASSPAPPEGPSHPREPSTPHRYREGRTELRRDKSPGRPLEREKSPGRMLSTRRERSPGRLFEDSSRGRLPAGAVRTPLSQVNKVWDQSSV
Sequence of UniProt P25100 (whole entry, looked up): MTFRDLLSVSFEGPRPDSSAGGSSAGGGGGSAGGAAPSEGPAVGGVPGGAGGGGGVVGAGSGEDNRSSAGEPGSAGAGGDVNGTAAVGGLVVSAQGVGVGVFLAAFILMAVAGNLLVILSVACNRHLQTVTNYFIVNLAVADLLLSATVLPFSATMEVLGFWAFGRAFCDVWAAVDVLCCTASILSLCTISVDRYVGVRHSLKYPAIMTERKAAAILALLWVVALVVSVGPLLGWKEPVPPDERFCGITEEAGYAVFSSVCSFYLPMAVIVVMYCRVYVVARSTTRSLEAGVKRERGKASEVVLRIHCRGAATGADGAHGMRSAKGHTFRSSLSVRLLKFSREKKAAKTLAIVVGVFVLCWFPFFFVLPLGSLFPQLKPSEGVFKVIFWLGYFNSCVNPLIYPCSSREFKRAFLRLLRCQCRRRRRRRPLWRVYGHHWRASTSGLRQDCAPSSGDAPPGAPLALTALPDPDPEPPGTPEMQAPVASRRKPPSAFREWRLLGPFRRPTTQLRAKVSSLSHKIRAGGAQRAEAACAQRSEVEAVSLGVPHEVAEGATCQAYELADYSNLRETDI
Sequence of UniProt O13828 (whole entry, looked up): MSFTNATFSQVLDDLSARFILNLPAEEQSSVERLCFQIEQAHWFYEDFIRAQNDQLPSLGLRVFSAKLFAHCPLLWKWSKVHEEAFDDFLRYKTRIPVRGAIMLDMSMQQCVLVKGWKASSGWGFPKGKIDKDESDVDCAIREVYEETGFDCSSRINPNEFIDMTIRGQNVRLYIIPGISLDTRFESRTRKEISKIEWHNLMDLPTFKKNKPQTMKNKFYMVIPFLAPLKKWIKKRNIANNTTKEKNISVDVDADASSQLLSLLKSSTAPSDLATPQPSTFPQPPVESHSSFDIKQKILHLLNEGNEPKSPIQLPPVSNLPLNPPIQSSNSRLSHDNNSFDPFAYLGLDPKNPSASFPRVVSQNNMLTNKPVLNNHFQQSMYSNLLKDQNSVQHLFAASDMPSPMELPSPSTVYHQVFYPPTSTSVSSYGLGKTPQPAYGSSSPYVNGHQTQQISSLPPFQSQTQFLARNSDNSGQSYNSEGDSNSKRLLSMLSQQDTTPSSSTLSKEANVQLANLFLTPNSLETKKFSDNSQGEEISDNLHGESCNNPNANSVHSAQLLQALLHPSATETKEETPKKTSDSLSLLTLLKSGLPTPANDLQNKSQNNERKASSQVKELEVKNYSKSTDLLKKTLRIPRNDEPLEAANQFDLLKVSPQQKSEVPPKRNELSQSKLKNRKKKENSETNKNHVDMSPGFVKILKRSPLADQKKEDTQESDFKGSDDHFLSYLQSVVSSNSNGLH
Sequence of UniProt P24530 (whole entry, looked up): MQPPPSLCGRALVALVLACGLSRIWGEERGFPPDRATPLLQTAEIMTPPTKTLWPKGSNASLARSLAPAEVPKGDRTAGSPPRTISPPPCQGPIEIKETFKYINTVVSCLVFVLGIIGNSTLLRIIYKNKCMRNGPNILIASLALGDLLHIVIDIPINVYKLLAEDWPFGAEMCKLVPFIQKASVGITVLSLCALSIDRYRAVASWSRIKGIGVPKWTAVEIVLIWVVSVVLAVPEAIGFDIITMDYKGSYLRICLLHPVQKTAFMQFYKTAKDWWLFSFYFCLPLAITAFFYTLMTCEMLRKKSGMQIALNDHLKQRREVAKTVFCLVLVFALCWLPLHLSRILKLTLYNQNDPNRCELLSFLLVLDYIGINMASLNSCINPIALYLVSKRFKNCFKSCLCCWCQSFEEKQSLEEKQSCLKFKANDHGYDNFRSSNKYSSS
Sequence of UniProt Q8NE63 (whole entry, looked up): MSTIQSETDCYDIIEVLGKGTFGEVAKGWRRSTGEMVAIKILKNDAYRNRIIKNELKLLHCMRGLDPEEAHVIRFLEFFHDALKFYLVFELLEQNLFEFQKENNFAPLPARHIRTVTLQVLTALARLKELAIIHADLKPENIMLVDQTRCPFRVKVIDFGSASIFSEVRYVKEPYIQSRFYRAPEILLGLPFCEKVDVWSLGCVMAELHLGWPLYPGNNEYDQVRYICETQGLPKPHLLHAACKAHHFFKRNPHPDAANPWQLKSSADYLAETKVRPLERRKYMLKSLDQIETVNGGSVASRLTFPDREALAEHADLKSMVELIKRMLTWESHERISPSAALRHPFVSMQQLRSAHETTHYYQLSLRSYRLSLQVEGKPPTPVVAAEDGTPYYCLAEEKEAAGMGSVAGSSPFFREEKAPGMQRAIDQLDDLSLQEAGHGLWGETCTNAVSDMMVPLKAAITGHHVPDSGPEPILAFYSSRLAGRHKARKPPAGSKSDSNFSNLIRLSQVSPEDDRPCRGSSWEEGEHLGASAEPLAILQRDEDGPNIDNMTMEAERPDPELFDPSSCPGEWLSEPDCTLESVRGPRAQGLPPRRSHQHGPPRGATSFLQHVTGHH

Structure (SMILES) | target | test | setting | inhibition
c1ccc(CN2CCNCC2)cc1 | ache | enzyme activity, inhibitor, Ellman | 20 µM | 36.6%
O=C1NCN(c2ccccc2)C12CCN(Cc1ccccc1)CC2 | PDE6D (Homo sapiens, UniProt O43924) | enzyme activity, inhibitor | 5 µM | 6.5%
CCc1nc2ccc(C(=O)NCCCn3ccnc3)cn2c1N(C)Cc1ccc(N(C)C)cc1 | ache | enzyme activity, inhibitor, Ellman | 5 µM | 78%
O=C(CN1CN(c2ccccc2)C2(CCN(C(=O)c3cnc4[nH]ncc4c3)CC2)C1=O)NCC(F)(F)F | CIT | inhibitor | concentration not given | < 50%
CC(C)[C@H]1NC(=O)C[C@H]2/C=C/CCSSC[C@@H](NC1=O)C(=O)N[C@H](Cc1cccc3ccccc13)C(=O)NCC(=O)O2 | CIT | enzyme activity, inhibitor | 10 µM | -5.1%
C[C@H](NCc1ccc(-c2ccc(C(F)(F)F)cc2)cc1)C(N)=O | ADRA1D (Homo sapiens, UniProt P25100) | radioligand binding, SafetyScreen panel | 1 µM, species human, together with: 0.60 nM [3H]Prazosin | -3%
O=C(NC1CCN(c2ncnc3[nH]cnc23)CC1)c1cccc(NS(=O)(=O)c2ccc(C(F)(F)F)cc2)c1 | Genome polyprotein, NS5 methyltransferase domain (Zika virus, UniProt Q32ZE1) | NS5 enzyme activity, inhibitor | 50 µM | -7.52%
C[n+]1cn([C@@H]2O[C@H](COP(=O)([O-])NP(=O)(O)O)[C@@H](O)[C@H]2O)c2nc(N)nc(O)c21 | mRNA decapping complex subunit 2, with Dcp1 (dcp2, Schizosaccharomyces pombe, UniProt O13828) | – | 200 µM, 0.25 h | 16.6%
CN[C@@H]1[C@H](O)[C@H](NC)[C@H]2O[C@]3(O)[C@H](O[C@@H]2[C@H]1O)O[C@H](C)C[C@H]3NC(=O)Cc1cc(Cl)ccn1 | EDNRB (Homo sapiens, UniProt P24530) | ligand displacement, radioligand | 10 µM | -1%
CS(C)(=O)=Nc1ccc(-c2ccc(-c3nc4cc(O[C@@H]5CO[C@H]6[C@@H]5OC[C@H]6O)[nH]c4cc3F)cc2)cc1 | L-type Ca2+ channel verapamil site | binding | 10 µM | 10%
CN(C)[C@H]1C[C@@]23CC[C@@]4(O2)C(=CC[C@]2(C)[C@@H](c5ccc6ccncc6c5)CC[C@H]24)C=C3[C@@H](O)[C@@H]1O | Diacylglycerol kinase theta (DGKQ, Homo sapiens, UniProt P52824) | ATP probe labelling, inhibitor, KiNativ profiling | 1 µM | 6.1%
CN(/N=C/c1ccccc1C(=O)O)c1nc(-c2ccccc2Cl)cs1 | HIPK4 (Homo sapiens, UniProt Q8NE63) | enzyme activity, inhibitor | 1 µM | -14.3%

For quick reference, copied from above:
Structure (SMILES) | target | test | setting | inhibition
CN(/N=C/c1ccccc1C(=O)O)c1nc(-c2ccccc2Cl)cs1 | HIPK4 (Homo sapiens, UniProt Q8NE63) | enzyme activity, inhibitor | 1 µM | -14.3%
